Experimental data from different studies.
Compare with care: the assays were run in different laboratories.
Organism: SARS-CoV-2

Substance	assay	system	setting	how to read	measurement	result
CC1CCN(CCCC(=O)c2ccc(F)cc2)CC1	viral replication, RT-qPCR	A549 expressing ACE2	–	–	IC50	> 10 µM
CC(C)=CCc1c(O)ccc(C(=O)/C=C/c2ccc(O)cc2)c1O	viral replication	Vero E6	50 µM	–	CPE inhibition	25%
CCCCCCCCCC(O)CC(=O)CCc1ccc(O)c(OC)c1 (centres unmarked)	viral replication	Huh-7	–	–	IC50	> 2 µM
CCC1CCCCN1CCCNC(=O)c1sc2nc(C)cc(C)c2c1-n1cccc1 (centres unmarked)	cytopathic effect	USA_WA1/2020	round 1, 5-point	–	maximum response	90.5%
COc1ccc(C[C@@H]2c3cc(Oc4cc(C[C@@H]5c6cc(O)c(OC)cc6CCN5C)ccc4O)c(OC)cc3CCN2C)cc1	viral replication	Vero E6	0.7812 µM	–	CPE inhibition	0%
elbasvir	viral replication	Huh-7	–	–	IC50	> 2 µM
O=C(O[C@@H]1Cc2c(O)cc(O)cc2O[C@@H]1c1cc(O)c(O)c(O)c1)c1cc(O)c(O)c(O)c1	viral replication	Vero E6	12.5 µM	–	CPE inhibition	0%
CS(=O)(=O)CCNCc1ccc(-c2ccc3ncnc(Nc4ccc(OCc5cccc(F)c5)c(Cl)c4)c3c2)o1	viral replication	Huh-7	–	–	IC50	> 2 µM
Cc1cc(OCCN2CCOCC2)nn1-c1ccc2ccccc2c1	–	Vero E6	concentration not given, NYC laboratory	–	viral replication inhibition	inactive
Cc1nc(Nc2ccc(F)cc2)nc(N2CCc3ccccc3C2C)c1C (centres unmarked)	viral replication, high-content imaging screen	–	cell-based	–	EC50	10.5 µM
CCN(CC)Cc1cc(Nc2ccnc3cc(Cl)ccc23)ccc1O	cytopathic effect, cell-based CPE	USA_WA1/2020	round 2, 5-point dilution	–	efficacy	83.4%
Cc1c(-c2ccccc2)oc2c(C(=O)OCCN3CCCCC3)cccc2c1=O	viral replication, anti-nucleoprotein immunostaining	Vero E6	–	–	IC50	> 10 µM
CN(C)C(=O)COC(=O)Cc1ccc(OC(=O)c2ccc(NC(=N)N)cc2)cc1	–	–	concentration not given, Paris laboratory	–	viral replication inhibition	inactive
Cc1nn(-c2ccc(Cl)cc2)c2c1C(c1ccc(Br)cc1)C(C#N)=C(N)O2 (centres unmarked)	–	Vero	1 µM	–	viral titre	948000 IU/mL
Cc1ccc(-c2nc3c(nc2-c2ccc(C)cc2)N(CCCCCCC(=O)O)CCC3)cc1	viral replication, high-content imaging screen	BetaCov/Belgium/GHB-03021/2020	cell-based	–	EC50	16.6 µM
O=C1NC(=O)C(c2ccccc2)(c2ccccc2)N1	viral replication	Huh-7	–	–	IC50	> 2 µM
C[C@@H](Oc1cc(-c2cnn(C3CCNCC3)c2)cnc1N)c1c(Cl)ccc(F)c1Cl	viral replication, high-content imaging screen	–	cell-based	–	EC50	4.47 µM
CCN(CC)CCOCCOC(=O)C1(c2ccccc2)CCCC1	viral replication, RT-qPCR	A549 expressing ACE2	–	–	IC50	> 10 µM
O=C(O)c1ccc2c(c1)nc(Nc1cccc(Cl)c1)c1ccncc12	viral replication	Vero E6	concentration not given	–	activity class	active
CNC1CC(c2ccc(Cl)c(Cl)c2)c2ccccc21 (centres unmarked)	viral replication, high-content imaging screen	–	cell-based	–	EC50	> 100 µM
Cc1nn(-c2ccc(Cl)cc2)c2c1C(c1ccc(F)cc1F)C(C#N)=C(N)O2 (centres unmarked)	–	Vero	10 µM	–	viral titre	544000 IU/mL
OC[C@H]1NC[C@H](O)[C@@H](O)[C@@H]1O	–	–	concentration not given, Paris laboratory	–	viral replication inhibition	inactive
CC(C)(C)[C@H](NC(=O)C(F)(F)F)C(=O)N1C[C@H]2[C@@H]([C@H]1C(=O)N[C@H](C#N)C[C@@H]1CCNC1=O)C2(C)C	viral replication, infectious virus	Vero E6	0.11 µM	–	inhibition	88.8%
Cc1nn(-c2ccc(Cl)cc2)c2c1C(c1ccc(Cl)cc1)C(C#N)=C(N)O2 (centres unmarked)	viral replication	Vero	1 µM	–	viral reduction	0.996%
Cc1cccc(/C=N/Nc2cc(N3CCOCC3)nc(OCCc3ccccn3)n2)c1	viral replication, inhibitor	Vero E6, USA-WA1/2020	24 h	–	EC90	0.048 µM
COc1ccc(CC(=O)NC2CCN(Cc3ccc(-c4ccccc4OC)cc3)C2)cc1 (centres unmarked)	cytopathic effect	USA_WA1/2020	round 1, 5-point	–	efficacy	102%
CN1CC[C@@]23CCCC[C@@H]2[C@@H]1Cc1ccc(O)cc13	viral replication, RT-qPCR	A549 expressing ACE2	–	–	IC50	> 10 µM

Substance	assay	system	setting	how to read	measurement	result
COc1ccc2cc1Oc1ccc(cc1)C[C@H]1c3cc(c(OC)cc3CCN1C)Oc1c(OC)c(OC)cc3c1[C@H](C2)N(C)CC3	viral replication, inhibitor	Vero E6, USA-WA1/2020	24 h	–	EC90	1.7 µM
CN(C)CC/C=C1/c2ccccc2Sc2ccc(Cl)cc21	viral replication, high-content imaging screen	–	cell-based	–	EC50	> 100 µM
Clc1ccccc1C1(c2ccnc(-c3ccccc3)n2)CCNCC1	cytopathic effect	USA_WA1/2020	retest, 8-point, duplicates	–	maximum response	82.3%
COc1cc(C(=O)OCCN2CCN(CCCN3c4ccccc4Sc4ccc(Cl)cc43)CC2)cc(OC)c1OC	viral replication, GFP plate reader screen	–	cell-based	–	EC50	18.6 µM
Cc1nn(-c2ccc(Cl)cc2)c2c1C(c1ccc(Cl)c(Cl)c1)C(C#N)=C(N)O2 (centres unmarked)	–	Vero	10 µM	–	viral titre	762000 IU/mL
CC(=O)NC1(c2ccccc2)CCN(CC[C@H](CN(C)C(=O)c2ccccc2)c2ccc(Cl)c(Cl)c2)CC1	viral replication, high-content imaging screen	BetaCov/Belgium/GHB-03021/2020	cell-based	–	EC50	> 100 µM
Cc1ccc(NS(=O)(=O)c2cccc(C(=O)NC3CCN(c4ncnc5[nH]cnc45)CC3)c2)cc1	–	A549-ACE2, Wuhan-Hu-1	7.407 µM	relative to: untreated	relative infection	59.6%
Nc1nc(F)nc2c1ncn2[C@@H]1O[C@H](COP(=O)(O)O)[C@@H](O)[C@@H]1O	viral replication	Huh-7	–	–	IC50	> 2 µM
C[C@@H]1CN(c2ncc(C(O)CO)cc2Cl)CCN1c1nc2c(-c3cc(F)c(F)c(F)c3)cc(C(F)(F)F)cc2[nH]1 (some centres unmarked)	viral replication	293T-ACE2, USA-WA1/2020	–	–	EC90	> 2.5 µM
CCC(CC)COC(=O)[C@H](C)N[P@](=O)(OC[C@H]1O[C@@](C#N)(c2ccc3c(N)ncnn23)[C@H](O)[C@@H]1O)Oc1ccccc1	–	Vero C1008	–	relative to: cytotoxicity IC50 over antiviral EC50	selectivity index	1480
COc1cc2c(cc1OC)C1CC(=O)C(CC(C)C)CN1CC2 (centres unmarked)	viral replication	Huh-7	–	–	IC50	> 2 µM
CC(C)=CCN1Cc2cc(Cl)cc3[nH]c(=S)n(c23)C[C@@H]1C	viral replication	293T-ACE2, USA-WA1/2020	–	–	EC90	0.676 µM
O=C(/C=C/c1ccc(O)c(O)c1/C=C/c1ccc(O)c(O)c1)O[C@H](Cc1ccc(O)c(O)c1)C(=O)O	viral replication	Vero E6	50 µM	relative to: mean of replicates	CPE inhibition	25%
Cc1ccc2nc(C3CCCN(Cc4cccc(-c5cccnc5)c4)C3)[nH]c(=O)c2c1 (centres unmarked)	cytopathic effect	USA_WA1/2020	retest, 8-point, duplicates	–	efficacy	58.4%
Cc1ccccc1NC(=N)Nc1ccccc1C	viral replication	A549 expressing ACE2	inactive set pIC50 4	–	IC50	> 10 µM
O=C(NCCCN1CCCCC1)c1cc(Sc2ccc(Cl)cc2)nc2ccccc12	cytopathic effect, cell-based CPE	USA_WA1/2020	round 2, 5-point dilution	–	AC50	11.2 µM
Cc1nn(-c2ccc(Cl)cc2)c2c1C(c1ccc(Cl)cc1Cl)C(C#N)=C(N)O2 (centres unmarked)	viral replication	Vero	10 µM	–	viral reduction	8.04%
Cc1cc(OCC(O)CN2CCN(c3cccc(Cl)c3)CC2)ccc1Cl (centres unmarked)	cytopathic effect	USA_WA1/2020	round 1, 5-point	–	efficacy	88.3%
Fc1ccc(-n2cc(CCCCN3CCC4(CC3)OCc3ccccc34)c3ccccc32)cc1	viral replication, anti-nucleoprotein immunostaining	Vero E6	–	–	IC50	1.02 µM
CC(C)(C)N1CCC(c2ccccc2)(c2ccccc2)CC1	cytopathic effect	USA_WA1/2020	retest, 8-point, duplicates	–	maximum response	23.6%
CCC(=O)CCCCC[C@@H]1NC(=O)[C@H]2CCCCN2C(=O)[C@H]([C@@H](C)CC)NC(=O)[C@H](Cc2cn(OC)c3ccccc23)NC1=O	–	Vero E6	concentration not given, NYC laboratory	–	viral replication inhibition	inactive
Cc1nn(-c2ccc(Cl)cc2)c2c1C(c1ccc(I)cc1)C(C#N)=C(N)O2 (centres unmarked)	–	Vero C1008	10 µM	relative to: positive control	viral titre log reduction	0.378 log10
CO[C@H]1C[C@@H]2CC[C@@H](C)[C@@](O)(O2)C(=O)C(=O)N2CCCC[C@H]2C(=O)O[C@H]([C@H](C)C[C@@H]2CC[C@@H](O)[C@H](OC)C2)CC(=O)[C@H](C)/C=C(\C)[C@@H](O)[C@@H](OC)C(=O)[C@H](C)C[C@H](C)/C=C/C=C/C=C/1C	–	–	concentration not given, Paris laboratory	–	viral replication inhibition	inactive
CCOC1O[C@H]([C@@H](COCc2ccccc2)OCc2ccccc2)[C@H](OCc2ccccc2)[C@H]1O (some centres unmarked)	viral replication, high-content imaging screen	–	cell-based	–	EC50	> 50.1 µM
CO[C@@H]1[C@H](N(C)C(=O)c2ccccc2)C[C@H]2O[C@]1(C)n1c3ccccc3c3c4c(c5c6ccccc6n2c5c31)C(=O)NC4	–	–	concentration not given, Paris laboratory	–	viral replication inhibition	inactive
CNS(=O)(=O)CCc1ccc2[nH]cc(C3CCN(C)CC3)c2c1	viral replication	Huh-7	–	–	IC50	> 2 µM

Repeated from above:
Substance	assay	system	setting	how to read	measurement	result
CC(C)(C)[C@H](NC(=O)C(F)(F)F)C(=O)N1C[C@H]2[C@@H]([C@H]1C(=O)N[C@H](C#N)C[C@@H]1CCNC1=O)C2(C)C	viral replication, infectious virus	Vero E6	0.11 µM	–	inhibition	88.8%
CN(C)CC/C=C1/c2ccccc2Sc2ccc(Cl)cc21	viral replication, high-content imaging screen	–	cell-based	–	EC50	> 100 µM
C[C@@H](Oc1cc(-c2cnn(C3CCNCC3)c2)cnc1N)c1c(Cl)ccc(F)c1Cl	viral replication, high-content imaging screen	–	cell-based	–	EC50	4.47 µM
COc1cc2c(cc1OC)C1CC(=O)C(CC(C)C)CN1CC2 (centres unmarked)	viral replication	Huh-7	–	–	IC50	> 2 µM
CO[C@H]1C[C@@H]2CC[C@@H](C)[C@@](O)(O2)C(=O)C(=O)N2CCCC[C@H]2C(=O)O[C@H]([C@H](C)C[C@@H]2CC[C@@H](O)[C@H](OC)C2)CC(=O)[C@H](C)/C=C(\C)[C@@H](O)[C@@H](OC)C(=O)[C@H](C)C[C@H](C)/C=C/C=C/C=C/1C	–	–	concentration not given, Paris laboratory	–	viral replication inhibition	inactive
Cc1cc(OCC(O)CN2CCN(c3cccc(Cl)c3)CC2)ccc1Cl (centres unmarked)	cytopathic effect	USA_WA1/2020	round 1, 5-point	–	efficacy	88.3%
C[C@@H]1CN(c2ncc(C(O)CO)cc2Cl)CCN1c1nc2c(-c3cc(F)c(F)c(F)c3)cc(C(F)(F)F)cc2[nH]1 (some centres unmarked)	viral replication	293T-ACE2, USA-WA1/2020	–	–	EC90	> 2.5 µM
Nc1nc(F)nc2c1ncn2[C@@H]1O[C@H](COP(=O)(O)O)[C@@H](O)[C@@H]1O	viral replication	Huh-7	–	–	IC50	> 2 µM
